Measurements from different studies.
Every numbered part comes from another study and shows a few of its results, in no order. Changes are numbered by the printed parent chain.

Study 1
Target: RNA binding protein fox-1 homolog 2, RRM domain, GST-SBP tag (RBFOX2, Homo sapiens, UniProt O43251-10, residues 100-194)
Method: RNA Bind-n-Seq
Form: RNA
Sample: in vitro
Tested at: 365 nM
Notes: natural RNA segment, single round, ends assumed
Reference: no-protein control
Reading: higher = stronger binding
Endpoint: RBNS enrichment (R)
Residues (chain): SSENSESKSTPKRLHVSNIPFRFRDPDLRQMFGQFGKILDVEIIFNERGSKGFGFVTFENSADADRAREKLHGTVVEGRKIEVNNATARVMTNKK
Sequence = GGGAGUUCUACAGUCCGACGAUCCGCCCUCAUGGCCCUAGACUAUGGGGUUGAAAACUCAUAGCAGUCAGGUUUGUUUACCAUCUCUCCGAGCCUCCACCACACUCCCUGACCCACCCAACGUCUCCAGUUCUUGGAAUUCUCGGGUGCCAA; result = 0.242
Sequence = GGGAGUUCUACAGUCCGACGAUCAAAGAAUUGAGAUUGUGUAUGGCAACCGUUAAUGAGGACAGCGCCUGAUGCCUUUUGUACCGAGGAAGAUAAUUGCCUCUUGUUUGACAAGUAGAGUUUAGUAGGUUAUUUGGAAUUCUCGGGUGCCAA; result = 2.58
Sequence = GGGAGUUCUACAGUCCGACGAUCUUCAAAAGUAUCUUUGCUCUCUUGGGCCUUUUCUUUUACUGUUUUGUUUUUUUUUUUUCUAAUCCUGCUUUCAUACUAGCCAGUGUGGGGAAAAGGUACAAUAUGUCAAAUGGAAUUCUCGGGUGCCAA; result = 0.923
Sequence = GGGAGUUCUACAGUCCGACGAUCAGCGCUGAGGGCCAGGGUCUUGUGCUGUGGGGCUGGGGGAUGCCCUCUUUUCUAUAUUUAUUUCAUAGAAAGUCUCCUGCGGGAGCGGAAAUGCAGUCCGGCCUAGGGCUUGGAAUUCUCGGGUGCCAA; result = 0.869
Sequence = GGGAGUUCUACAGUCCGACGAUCUUUGAUCAGUUGAGUAGUUGCUUAUACAUAGAUUCUUAAAAGAAAAUACUUGUGUUUCUAUUAAAUAUACACUACUAAAUACAUGUUAUGUGACUAGUAUUUAUCCUUUAUGGAAUUCUCGGGUGCCAA; result = 0.39
Sequence = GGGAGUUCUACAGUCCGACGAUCGCCCUCAUUGCUGCUUAUCGUACCCCCCAUCACCUGCACAUGGGACAGACCGGGCUGGAGGGUGACCUUGGCUGUGUGCGUCCCAGCAAAAGAGCUCUGGCCCGCAUCUCUGGAAUUCUCGGGUGCCAA; result = 1.21
Sequence = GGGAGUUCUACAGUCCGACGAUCGAUGAAACUGAUUUGGAGCACCCUUUUCUUUAUCGCUACAUUUAUUUAGGGGACAAACUCCAUCCAGGUUGACUCUCUCUGGAAUGCGGUAAUAAGAGCUGGCAAGUAAGUGGAAUUCUCGGGUGCCAA; result = 0.843
Sequence = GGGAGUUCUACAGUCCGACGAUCGUUCCGGAGCACCCUUGUGAAGAAAAUGUGUUCUUUCUUCCGAUGGGUCCAGUUGCAGUGGCCAAUUUCCUGAAACCUGUCUUUUCCUAAGCGCUGACCGUGAACUCUGCUGGAAUUCUCGGGUGCCAA; result = 0.581
Sequence = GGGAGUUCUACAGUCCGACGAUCCCACCCCAUGUUACAGCAAGACUGGUCUUACAGAGUGAGUACUCUGGGUGAUGCUUACGGGAAGGAGAUUGGUAGAUGCAGUCUUUUUUUCCCCCUUAGCACUUGUAUGAUGGAAUUCUCGGGUGCCAA; result = 0.589
Sequence = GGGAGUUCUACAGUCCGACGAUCCCUUGUAAAUACCCGCUGCUGCGGUGGCCCUGAGCGAGGAACAAGCCAUUCGGACCCGACCGAUGUAAAUACAGCCGCCCGUCCGCCCGCCUUCCUCCCGGGCUCCCCGGUGGAAUUCUCGGGUGCCAA; result = 0.264
Sequence = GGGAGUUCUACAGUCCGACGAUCUGAAGUAGAAGUAGAUUGUUGGAUUGCAAAGAAAAUGAUAAAGAUUCCCUAAAGGAAUUUAUAAGCAGGCAACUUCAUUCCUAUGUAUAAGAUAUUGGGAGAAAACAAACUGGAAUUCUCGGGUGCCAA; result = 0.57
Sequence = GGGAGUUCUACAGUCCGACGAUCGCUUUCAAGUGCUGUCUGGGGGGGCCAGCCCCACGAGCCUCCAACCACAUUAGAGGCUGGGAACAGCCAGGAUGUUGCCAAAGCCCCUGGCCUUUCCUGUACACGCCUGUUGGAAUUCUCGGGUGCCAA; result = 0.332

Study 2
Target: ABI1, truncated, D143A, DHFR fusion (Arabidopsis thaliana)
Method: DHFR PCA, deep sequencing
Sample: yeast
Notes: methotrexate growth selection, single substitutions
Together with: (+)-ABA 710 µM
Reference: wild-type fitted maximum
Reading: higher = stronger binding
Endpoint: relative binding score
Starting sequence: PYL1, truncated, DHFR fusion (Arabidopsis thaliana); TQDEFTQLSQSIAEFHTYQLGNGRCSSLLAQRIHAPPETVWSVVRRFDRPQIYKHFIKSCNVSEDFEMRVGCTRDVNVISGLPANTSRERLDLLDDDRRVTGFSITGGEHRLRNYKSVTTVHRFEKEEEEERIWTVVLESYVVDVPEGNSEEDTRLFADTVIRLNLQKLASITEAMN
Variant = R111L; result = 88.5%
Variant = R24D; result = 95.1%
Variant = P146N; result = 65%
Variant = R88I; result = 111%
Variant = A35I; result = 65.8%
Variant = I105M; result = 92.7%
Variant = K54R; result = 71%
Variant = S87D; result = 8.25%

Study 3
Target: CCND2, cyclin fold, Cln2 fusion (human)
Method: yeast growth competition, sequencing
Sample: yeast
Notes: strong parent motif
Reference: not given
Reading: higher = stronger binding
Endpoint: normalised enrichment score
Starting sequence: INSM1 docking peptide (human); PKAIRKLHFEDEV; partner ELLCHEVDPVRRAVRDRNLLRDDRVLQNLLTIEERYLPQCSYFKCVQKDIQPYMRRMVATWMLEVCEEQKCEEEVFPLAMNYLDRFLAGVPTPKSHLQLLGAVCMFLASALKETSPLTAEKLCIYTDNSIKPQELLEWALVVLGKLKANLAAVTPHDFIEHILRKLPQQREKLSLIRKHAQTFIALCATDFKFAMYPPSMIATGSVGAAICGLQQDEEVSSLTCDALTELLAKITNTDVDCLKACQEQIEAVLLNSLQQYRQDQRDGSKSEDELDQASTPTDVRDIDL
Variant = E12Q; result = 1.51
Variant = A3I; result = 0.349
Variant = K2G; result = 2.99
Variant = A3W; result = -0.489
Variant = H8K; result = 2.55
Variant = K2C; result = 2.65
Variant = R5N; result = 0.0177
Variant = E12G; result = 1.74
Variant = H8Y; result = 1.74
Variant = F9C; result = -0.000619
Variant = L7N; result = -0.12
Variant = E10R; result = 0.853

Mixed results
Substance = PhoQ, residues 284 288 289 292 302 303 AGGLSV; target = PhoP, residues 12 14 15 18 19 GHCSL (Escherichia coli, UniProt P23836); assay = Sort-seq, refers to: YFP reporter; test system = E. coli; conditions = PhoQ-PhoP variant library, together with: 10 µM Mg2+; scale = reference: high Mg2+ state, higher = stronger signaling; endpoint = fold induction; result = 4.25

Some of these lines once more (study 3):
Variant = K2C; result = 2.65
Variant = R5N; result = 0.0177
Variant = E12G; result = 1.74
Variant = H8Y; result = 1.74
